Assay results of several laboratories.
Parts stem from different laboratories: compare values within a part only. Positions count from the first letter of the parent shown.

Block 1 — target: CCNA1, cyclin fold, Cln2 fusion (human); method: yeast growth competition, sequencing; medium: yeast; notes: weak parent motif; baseline: not given; direction: higher = stronger binding
Parent: BRCA2 docking peptide (human); PSIKRNLLNEFDR; partner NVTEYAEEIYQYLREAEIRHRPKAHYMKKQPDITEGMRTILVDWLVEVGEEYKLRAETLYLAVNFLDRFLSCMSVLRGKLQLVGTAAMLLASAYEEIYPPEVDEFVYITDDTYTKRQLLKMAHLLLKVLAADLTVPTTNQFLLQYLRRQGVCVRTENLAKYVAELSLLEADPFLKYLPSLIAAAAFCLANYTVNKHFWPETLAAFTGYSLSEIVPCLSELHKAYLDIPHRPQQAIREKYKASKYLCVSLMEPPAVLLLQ
| Substitution | normalised enrichment score |
| --- | --- |
| R13S | 0.642 |
| N9P | 0.721 |
| N9W | 0.576 |
| D12W | 0.789 |
| F11Q | 0.164 |
| S2E | 0.473 |
| D12N | 0.645 |
| K4L | 0.104 |
| N6V | 0.173 |
| P1Y | 0.753 |
| P1N | 0.591 |
| P1T | 0.34 |
| N6C | 0.187 |
| N6K | 0.828 |

Block 2 — method: RNA Bind-n-Seq; form: RNA; medium: in vitro; tested at: 1 µM; notes: whole 134-nt RNA, ends assumed; added: 150 mM KCl; baseline: input library; direction: higher = stronger binding
Target: Ras GTPase-activating protein-binding protein 1, RRM domain (G3BP1, Homo sapiens, UniProt Q13283)
Sequence of UniProt Q13283 (whole entry, looked up): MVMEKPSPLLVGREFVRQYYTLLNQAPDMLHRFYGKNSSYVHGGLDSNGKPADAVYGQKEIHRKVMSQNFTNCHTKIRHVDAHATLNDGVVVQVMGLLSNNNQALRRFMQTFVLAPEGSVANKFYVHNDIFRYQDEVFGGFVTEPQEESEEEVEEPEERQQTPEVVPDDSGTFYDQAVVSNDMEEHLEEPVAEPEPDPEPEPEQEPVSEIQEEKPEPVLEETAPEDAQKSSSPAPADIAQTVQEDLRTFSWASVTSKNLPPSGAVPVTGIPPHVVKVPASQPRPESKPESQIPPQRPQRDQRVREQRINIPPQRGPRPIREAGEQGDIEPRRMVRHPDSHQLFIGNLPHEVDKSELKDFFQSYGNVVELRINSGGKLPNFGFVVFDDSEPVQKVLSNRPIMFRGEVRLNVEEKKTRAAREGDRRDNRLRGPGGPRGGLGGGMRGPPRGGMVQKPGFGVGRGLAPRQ
| Strand | log2 enrichment |
| --- | --- |
| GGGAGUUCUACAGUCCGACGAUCAGUCCUGUGCUACACAUCGUAUGUACCGAAUCGGGAAAAAGGGUUUUUUUGGGUGGGAAAGUAUUAUGUUACGCCGUUCGGAUCUGCACUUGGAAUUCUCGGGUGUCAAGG | 0.603 |
| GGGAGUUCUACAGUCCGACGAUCUAACUUUAGAGGAGGAUCUGAUGGAUAUGGCAGUGGACGUGGAUUUGGGGAUGGCUAUAAUGGGUAUGGAGGAGGACCUGGAGGUGGCUAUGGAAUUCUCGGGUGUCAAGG | -0.312 |
| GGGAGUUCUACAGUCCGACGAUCGUCCUGUGCUACACAUCGUAUGUACCGAAUCGGGGCCCCGGGGCCCCGGGGCCCCGGGGAAAGUAUUAUGUUACGCCGUUCGGAUCUGCAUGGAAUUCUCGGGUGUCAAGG | -0.859 |
| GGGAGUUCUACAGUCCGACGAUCGUCCUGUGCUACACAUCGUAUGUACCGAAUCGGCCCCCGGGGCCCCCGGCCCCCGGGGAAAGUAUUAUGUUACGCCGUUCGGAUCUGCACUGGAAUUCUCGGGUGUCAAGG | -0.545 |
| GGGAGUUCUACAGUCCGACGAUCCAAGUCCUGUGCUACACAUCGUAUGUACCGAAUCGGGAAAAGGGAAAAGGAAAAGGAAAGUAUUAUGUUACGCCGUUCGGAUCUGCACUUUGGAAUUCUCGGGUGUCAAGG | -0.107 |
| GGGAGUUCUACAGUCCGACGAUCCUCAAGUCCUGUGCUACACAUCGUAUGUACCGAAUCGGUGGUUUUUUUGGAGGAAAGUAUUAUGUUACGCCGUUCGGAUCUGCACUUCCAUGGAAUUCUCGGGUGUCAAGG | -0.112 |
| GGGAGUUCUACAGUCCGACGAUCUACUCUCUCGGGGCUGGAAGCUUCCUGACUGAAGAUCUCUCUGCACUUGGGGUUCUUUCUAGAACAUUUUCUAGUCCCCCAACACCCUUUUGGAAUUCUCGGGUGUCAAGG | -0.0112 |
| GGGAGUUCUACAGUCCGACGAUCUAACUUUAGAGGAGGAUCUGAUGGAUAUCGCAGUGGACGUGGAUUUGGGGAUGGCUAUAAUGGGUAUGGAGGAGGACCUGGAGGUGGCAAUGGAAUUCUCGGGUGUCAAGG | -0.748 |
| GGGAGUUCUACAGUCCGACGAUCCAAGUCCUGUGCUACACAUCGUAUGUACCGAAUCGGAAAAAGGUGGAAAAAAAGGAAAGUAUUAUGUUACGCCGUUCGGAUCUGCACUUCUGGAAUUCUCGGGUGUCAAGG | -0.134 |

Block 3 — method: protein-binding microarray; form: double-stranded DNA, one strand shown; medium: in vitro; tested at: not given; direction: higher = stronger binding
Target: Max dimerization protein 1, bHLH-zipper, MAX partner unstated (MXD1, Homo sapiens, UniProt Q05195, residues 56-136)
Notes: k-mer, scored over probes, only values ≥0.25
Residues (chain): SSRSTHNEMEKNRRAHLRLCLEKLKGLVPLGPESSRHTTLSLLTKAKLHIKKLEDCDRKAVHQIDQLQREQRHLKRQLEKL
| Strand | E-score |
| --- | --- |
| AGTCACAT | 0.278 |
| GCGGGGAA | 0.301 |
| ACGCGCGA | 0.259 |
| GCCATGCC | 0.372 |
| TGCGCACA | 0.313 |
| ATCATGCG | 0.302 |
| CCACCCTC | 0.262 |
| ATCCCACG | 0.34 |
| GCTAACCA | 0.254 |
| GCCTCCCC | 0.384 |
| CTGCCCAC | 0.279 |
| ATGTGGAC | 0.283 |
| CAGCACGC | 0.342 |
| CCCACCAC | 0.292 |
| CACGTTGC | 0.426 |
| ATGTGGTG | 0.254 |
| CGTGCTCA | 0.385 |

Block 4 — method: DHFR PCA, deep sequencing; medium: yeast; added: (+)-ABA 17 µM; baseline: wild-type fitted maximum; direction: higher = stronger binding
Target: ABI1, truncated, D143A, DHFR fusion (Arabidopsis thaliana)
Notes: methotrexate growth selection, single substitutions
Parent: PYL1, truncated, DHFR fusion (Arabidopsis thaliana); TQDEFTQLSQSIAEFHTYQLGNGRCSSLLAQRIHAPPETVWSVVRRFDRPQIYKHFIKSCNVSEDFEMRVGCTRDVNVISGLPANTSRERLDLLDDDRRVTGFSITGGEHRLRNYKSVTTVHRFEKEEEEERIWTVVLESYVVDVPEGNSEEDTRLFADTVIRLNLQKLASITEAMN; partner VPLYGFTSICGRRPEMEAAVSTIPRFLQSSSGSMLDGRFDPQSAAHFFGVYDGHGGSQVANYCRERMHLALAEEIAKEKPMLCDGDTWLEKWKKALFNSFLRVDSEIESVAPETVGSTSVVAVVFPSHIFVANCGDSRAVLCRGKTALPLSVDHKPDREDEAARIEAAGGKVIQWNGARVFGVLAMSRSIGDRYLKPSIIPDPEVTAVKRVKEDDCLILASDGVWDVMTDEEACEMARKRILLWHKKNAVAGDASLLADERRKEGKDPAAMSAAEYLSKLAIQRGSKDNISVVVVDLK
| Substitution | relative binding score |
| --- | --- |
| T86A | 59.3% |
| Y18N | 61% |
| N22E | 88.6% |
| D144I | 9.95% |
| W41F | 4.22% |
| T17K | 68% |
| I57G | -11.1% |
| D75P | -42.8% |
| V44C | 56.3% |
| M68F | 74.5% |
| S11P | 87.4% |
| F157V | 38.7% |
| L91T | -14.9% |
| A175I | 74.8% |

For quick reference, copied from above (block 4):
| Substitution | relative binding score |
| --- | --- |
| N22E | 88.6% |
| D144I | 9.95% |
| W41F | 4.22% |
| T17K | 68% |
